Measured values pooled from the literature.
Compare with care: the assays were run in different laboratories. ± marks the error that the study gave.
Cell line: PC-3

| SMILES | test | setting | how to read | measurement | result |
| --- | --- | --- | --- | --- | --- |
| COc1cc(CNC(=O)CCCC/C=C/C(C)C)ccc1OCc1cn(-c2ccccc2F)nn1 | SRB | 10 µM, 48 h | – | growth percent | 82% |
| CSC(SC)=C(C#N)C(=O)Nc1nnc(NC(=O)c2ccccc2)s1 | cell growth or viability, MTT | 48 h | – | IC50 | 12.2 µM |
| COc1cc(CNC(=O)CCCC/C=C/C(C)C)ccc1OCc1cn(-c2ccc(C(F)(F)F)cc2)nn1 | SRB | 10 µM, 48 h | – | growth percent | 70.5% |
| C[C@]1([N+](=O)[O-])C(=O)c2ccccc2O[C@@H]1CC(=O)Nc1nccs1 | cell growth or viability, SRB | 96 h | – | IC50 | 36.9 µM |
| COc1cc(CNC(=O)CCCC/C=C/C(C)C)ccc1OCc1cn(-c2ccc(Br)cc2)nn1 | SRB | 10 µM, 48 h | – | growth percent | 73.7% |
| C[C@]1([N+](=O)[O-])C(=O)c2ccccc2O[C@@H]1CC(=O)NNc1nc2ccccc2s1 | cell growth or viability, SRB | 96 h | – | IC50 | > 50 µM |
| CCCCCCCC(=O)NCCCC[C@H](N)C(=O)NCCCNCCCCNCCCN | cell growth | 6 days, together with: DFMO 5.0 mM, spermidine 0.5 µM, aminoguanidine 1.0 mM | – | EC50 | 1.1 µM |
| O=c1[nH]nc(O)c2c(-c3ccccc3)c3n(c12)CCn1cccc1-3 | cell growth or viability, MTT | 48 h | – | IC50 | 91.2 µM |
| COc1cc(CNC(=O)CCCC/C=C/C(C)C)ccc1OCc1cn(-c2ccc([N+](=O)[O-])cc2)nn1 | SRB | 10 µM, 48 h | – | growth percent | 78% |
| C[C@]1([N+](=O)[O-])C(=O)c2ccccc2O[C@@H]1CC(=O)NCc1ccccc1 | cell growth or viability, SRB | 96 h | – | IC50 | 9.91 µM |
| O=c1[nH]nc(O)c2c(-c3ccc(Br)cc3)c3n(c12)CCn1cccc1-3 | cell growth or viability, MTT | 48 h | – | IC50 | 60 µM |
| COc1cc(CNC(=O)C[C@H](C)CCC=C(C)C)ccc1OCc1cn(-c2ccc(Cl)cc2)nn1 | SRB | 10 µM, 48 h | – | growth percent | 80.2% |
| O=c1[nH]nc(O)c2c(-c3cccc([N+](=O)[O-])c3)c3n(c12)CCn1cccc1-3 | cell growth or viability, MTT | 48 h | – | IC50 | 17.7 µM |
| CC(=O)O[C@@]12CO[C@@H]1C[C@H](O)[C@@]1(C)C(=O)[C@H](O)C3=C(C)[C@@H](OC(=O)[C@H](O)[C@@H](NC(=O)OC(C)(C)C)c4ccccc4)C[C@@](O)([C@@H](OC(=O)c4ccccc4)[C@H]21)C3(C)C | RT-qPCR | IC50 concentration, 72 h plus 24 h recovery | relative to: untreated | GRPR mRNA level | 42.3 ± 4.55% |
| C#C[C@@]1(O)[C@@H](CO)O[C@@H](n2cc(Cl)c3c(N)ncnc32)[C@@H]1O | cell growth or viability, SRB | 48 h | – | GI50 | 0.192 µM |
| O=c1[nH]nc(O)c2c(-c3ccc(Cl)cc3)c3n(c12)CCn1cccc1-3 | cell growth or viability, MTT | 48 h | – | IC50 | 57.9 µM |
| CC[C@]1([N+](=O)[O-])C(=O)c2ccccc2O[C@@H]1CC(=O)NC1CCCCC1 | cell growth or viability, SRB | 96 h | – | IC50 | > 50 µM |
| COC(=O)c1c(-c2ccc(Cl)cc2Cl)c2n(c1C(=O)OC)CCn1cccc1-2 | cell growth or viability, MTT | 48 h | – | IC50 | 81.1 µM |
| C[C@]1([N+](=O)[O-])C(=O)c2cc(C(F)(F)F)ccc2O[C@@H]1CC(=O)NC12CC3CC(CC(C3)C1)C2 | cell growth or viability, SRB | 96 h | – | IC50 | 1.69 µM |
| COC(=O)c1c(-c2cccc(C)c2)c2n(c1C(=O)OC)CCn1cccc1-2 | cell growth or viability, MTT | 48 h | – | IC50 | 92.8 µM |
| C[C@]1([N+](=O)[O-])C(=O)c2ccccc2O[C@@H]1CC(=O)NC1CCCCC1 | cell growth or viability, SRB | 96 h | – | IC50 | 3.35 µM |

Some of these lines once more:
| SMILES | test | setting | how to read | measurement | result |
| --- | --- | --- | --- | --- | --- |
| COc1cc(CNC(=O)CCCC/C=C/C(C)C)ccc1OCc1cn(-c2ccccc2F)nn1 | SRB | 10 µM, 48 h | – | growth percent | 82% |
| CSC(SC)=C(C#N)C(=O)Nc1nnc(NC(=O)c2ccccc2)s1 | cell growth or viability, MTT | 48 h | – | IC50 | 12.2 µM |
